{"data": "Assay results pooled from the literature", "note": "Each numbered part is a random draw from the data of one study; scales do not carry over between parts."}
{"data": "Set 1", "target": "Interferon regulatory factor 7, full length, phosphomimetic (IRF7, Homo sapiens, UniProt Q92985, residues 1-503, S471D/S472D/S475D/S476D/S477D/S483D/S484D/S487D)", "technique": "protein-binding microarray", "form": "double-stranded DNA, one strand shown", "sample": "in vitro", "tested at": "2200 nM top", "setting": "60-bp whole probe", "added": "salmon DNA 0.4 mg/ml", "baseline": "random background probes", "direction": "higher = stronger binding", "Residues (chain)": "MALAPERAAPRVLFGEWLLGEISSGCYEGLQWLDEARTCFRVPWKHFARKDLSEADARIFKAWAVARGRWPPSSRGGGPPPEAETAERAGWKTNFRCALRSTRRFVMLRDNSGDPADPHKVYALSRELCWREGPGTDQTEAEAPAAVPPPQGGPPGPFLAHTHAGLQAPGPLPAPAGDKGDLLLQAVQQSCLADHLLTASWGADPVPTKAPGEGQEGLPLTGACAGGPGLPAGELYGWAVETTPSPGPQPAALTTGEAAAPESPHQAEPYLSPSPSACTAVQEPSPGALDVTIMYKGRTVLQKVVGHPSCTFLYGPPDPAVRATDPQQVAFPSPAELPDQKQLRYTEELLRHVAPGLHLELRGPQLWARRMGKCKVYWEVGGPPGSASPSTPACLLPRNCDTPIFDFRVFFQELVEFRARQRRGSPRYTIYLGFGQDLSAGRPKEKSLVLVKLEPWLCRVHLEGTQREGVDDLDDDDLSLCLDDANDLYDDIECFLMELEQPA"}
{"Oligonucleotide": "GCCTAGCACTCATCTCTTATTCTAACACTGTGCTAGGTCTTGATTCGCTTGACGCTGCTG", "fitted relative affinity [z-score]": 1.61}
{"Oligonucleotide": "GCCTAGCACTTAGATTTCAGTCTCGATAAGTGCTAGGTCTTGATTCGCTTGACGCTGCTG", "fitted relative affinity [z-score]": 0.459}
{"Oligonucleotide": "GCCTAGCACTTAGAATTGGGGACTGGATTAGTGCTAGTCTTGATTCGCTTGACGCTGCTG", "fitted relative affinity [z-score]": -0.184}
{"data": "Set 2", "target": "Histone acetyltransferase KAT6A, both winged helices, GST fusion (KAT6A, Homo sapiens, UniProt Q92794, residues 1-181)", "technique": "protein binding microarray", "form": "double-stranded DNA, one strand shown", "sample": "in vitro", "tested at": "not given", "setting": "8-mer, flanks averaged, mean of 2 arrays, mostly near background", "baseline": "not given", "direction": "higher = stronger binding", "Target sequence (chain)": "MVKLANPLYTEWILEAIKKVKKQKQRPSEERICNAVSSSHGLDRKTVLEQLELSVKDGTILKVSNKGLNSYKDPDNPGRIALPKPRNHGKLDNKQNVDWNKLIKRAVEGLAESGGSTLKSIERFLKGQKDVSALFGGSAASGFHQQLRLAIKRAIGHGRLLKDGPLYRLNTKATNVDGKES"}
{"Oligonucleotide": "TAGGTTGA", "E-score": -0.0669}
{"Oligonucleotide": "ACCGGCCT", "E-score": 0.11}
{"Oligonucleotide": "CTTTCCCA", "E-score": -0.15}
{"data": "Mixed results", "UNK zinc fingers 1-6, GST-SBP tag": "RING finger protein unkempt homolog, zinc fingers 1-6, GST-SBP tag (UNK, Homo sapiens, UniProt Q9C0B0, residues 30-357)", "sequence of UniProt Q9C0B0 (30-357, looked up)": "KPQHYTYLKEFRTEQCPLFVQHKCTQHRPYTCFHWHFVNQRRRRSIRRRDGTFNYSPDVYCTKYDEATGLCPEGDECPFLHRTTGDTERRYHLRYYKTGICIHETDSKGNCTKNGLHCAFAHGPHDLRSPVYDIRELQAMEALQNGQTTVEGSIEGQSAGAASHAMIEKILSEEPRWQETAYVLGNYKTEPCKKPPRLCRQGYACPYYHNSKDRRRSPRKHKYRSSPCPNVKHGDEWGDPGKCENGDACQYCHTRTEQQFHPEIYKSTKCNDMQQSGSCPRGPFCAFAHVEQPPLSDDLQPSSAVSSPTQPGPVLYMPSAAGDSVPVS"}
{"Substance": "GGGAGUUCUACAGUCCGACGAUCUAUUUAGUUUUCUGUAGGGUUUUUUGGUUUUGGGGGGGGGGUUGUUUGUUUGUUUGUUGUUUCCGUUUUUGGAAGGAGGGAUGGACUCCACCAGUGUCAGUGUCGGUGUGUCUUAUGUCUCAACAGAGGAUUGAGCAUCA", "target": "UNK zinc fingers 1-6, GST-SBP tag", "assay": "RNA Bind-n-Seq", "system": "RNA, in vitro", "conditions": "not given, RNA with constant flanks, ends assumed", "scale": "baseline: input RNA pool, higher = stronger binding", "measurement": "bound/input enrichment", "value": "4.92 ratio"}
{"Substance": "PhoQ, residues 284 288 289 292 302 303 GTAMQF", "target": "PhoP, residues 12 14 15 18 19 LHATL (Escherichia coli, UniProt P23836)", "assay": "Sort-seq, measured: YFP reporter", "system": "E. coli", "conditions": "PhoQ-PhoP variant library, added: 10 µM Mg2+", "scale": "baseline: high Mg2+ state, higher = stronger signaling", "measurement": "fold induction", "value": 15.4}
{"Substance": "GGGAGUUCUACAGUCCGACGAUCGAUCAUGAACCACCAUCAGAAAUGAAGAUGAGAUUACCCAGACGAGCCCAAAACCGCGCGCUACAGAAAAGUAAACUUAACCUUGCAGAGUUCCUUAAUGAAGAUACUAAGUUAGGAAGCCAACAGAGGAUUGAGCAUCA", "target": "UNK zinc fingers 1-6, GST-SBP tag", "assay": "RNA Bind-n-Seq", "system": "RNA, in vitro", "conditions": "not given, RNA with constant flanks, human-mouse chimeric sites, ends assumed", "scale": "baseline: input RNA pool, higher = stronger binding", "measurement": "bound/input enrichment", "value": "0.361 ratio"}
{"Substance": "GGGAGUUCUACAGUCCGACGAUCUACAUUUUACACUGUUGGUUUGUAUUUUUGUAUGUUUAUGGUGUCUGCUUGCCUGUGUCUUUCCGUAAAAUAAGACUUUAAAAUUACUUAGCAUGCUAUUUAACAUUUUCUAAAAAUUAUCAACAGAGGAUUGAGCAUCA", "target": "UNK zinc fingers 1-6, GST-SBP tag", "assay": "RNA Bind-n-Seq", "system": "RNA, in vitro", "conditions": "not given, RNA with constant flanks, ends assumed", "scale": "baseline: input RNA pool, higher = stronger binding", "measurement": "bound/input enrichment", "value": "5.15 ratio"}
{"Substance": "GGGAGUUCUACAGUCCGACGAUCUCAAGGGGGCACUGCAGAGCCAUGCCUUUCCUUGACAUACAGAAAAAGCUGGGCAUCAGCCUGGACCGGCACUUUAUAAUCCAGAGUGCAGAACAGCCCUAUAAGAACGCCGCUCGGUGCCAACAGAGGAUUGAGCAUCA", "target": "UNK zinc fingers 1-6, GST-SBP tag", "assay": "RNA Bind-n-Seq", "system": "RNA, in vitro", "conditions": "not given, RNA with constant flanks, human-mouse chimeric sites, ends assumed", "scale": "baseline: input RNA pool, higher = stronger binding", "measurement": "bound/input enrichment", "value": "0.0923 ratio"}
{"note": "Repeated from above (mixed results):"}
{"Substance": "GGGAGUUCUACAGUCCGACGAUCGAUCAUGAACCACCAUCAGAAAUGAAGAUGAGAUUACCCAGACGAGCCCAAAACCGCGCGCUACAGAAAAGUAAACUUAACCUUGCAGAGUUCCUUAAUGAAGAUACUAAGUUAGGAAGCCAACAGAGGAUUGAGCAUCA", "target": "UNK zinc fingers 1-6, GST-SBP tag", "assay": "RNA Bind-n-Seq", "system": "RNA, in vitro", "conditions": "not given, RNA with constant flanks, human-mouse chimeric sites, ends assumed", "scale": "baseline: input RNA pool, higher = stronger binding", "measurement": "bound/input enrichment", "value": "0.361 ratio"}
